Published values collected from several papers.
Each line is one published result; not all experiments were run side by side. ± gives the spread as reported.

With `CC(C)C[C@@H](NC(=O)[C@@H](Cc1ccccc1)NC(=O)[C@H](N)Cc1ccccc1)C(=O)N[C@H](CCCCN)C(=O)N1CCC(N)(C(=O)O)CC1` the Tmax was 0.1 h (human, plasma; intravenous, 5 µg/kg).
For `CC(C)C[C@H](NC(=O)[C@H](CCCCN)NC(=O)[C@H](C)NC(=O)[C@@H]1CCCN1C(=O)[C@@H]1CCCN1C(=O)[C@H](CCCCN)NC(=O)[C@H](CCCCN)NC(=O)[C@H](CO)NC(=O)[C@H](CCC(=O)O)NC(=O)[C@H](CCCCN)NC(=O)[C@H](CCCNC(=N)N)NC(=O)[C@H](CCC(N)=O)NC(=O)[C@H](CCC(N)=O)NC(=O)[C@@H](NC(=O)[C@H](CCCNC(=N)N)NC(=O)[C@H](CCC(N)=O)NC(=O)[C@H](Cc1cnc[nH]1)NC(=O)[C@H](CCC(=O)O)NC(=O)[C@@H]1CCCN1C(=O)[C@H](CO)NC(=O)[C@H](CC(C)C)NC(=O)[C@H](Cc1ccccc1)NC(=O)[C@H](CO)NC(=O)[C@H](CO)NC(=O)CN)C(C)C)C(=O)N[C@@H](CCC(N)=O)C(=O)N1CCC[C@H]1C(=O)N[C@@H](CCCNC(=N)N)C(=O)O`, the Tmax was 2.83 ± 0.817 h (ELISA; healthy humans, both sexes, plasma; intravenous bolus then infusion, 1.1 µg/kg bolus then 4 µg/kg/h, 210 min).
For `CC[C@@H]1C[C@]1(NC(=O)[C@@H]1C[C@@]2(CN1C(=O)[C@@H](NC(=O)[C@@H](NC(=O)[C@@H]1CCCCN1C(C)C)C1CCCCC1)C(C)(C)C)C(C)(C)C21CCC1)C(=O)NS(=O)(=O)N1CCCC1`, the Tmax was about 1 h (human, fasted, plasma; oral, 100 mg, single dose, median).
The Tmax of `CSCC[C@H](NC(=O)[C@H](CO)NC(=O)[C@H](Cc1ccc(O)cc1)NC(=O)[C@@H](N)CO)C(=O)N[C@@H](CCC(=O)O)C(=O)N[C@@H](Cc1c[nH]cn1)C(=O)N[C@@H](Cc1ccccc1)C(=O)N[C@@H](CCCNC(=N)N)C(=O)N[C@@H](Cc1c[nH]c2ccccc12)C(=O)NCC(=O)N[C@@H](CCCCN)C(=O)N1CCC[C@H]1C(=O)N[C@H](C(=O)NCC(=O)N[C@@H](CCCCN)C(=O)N[C@@H](CCCCN)C(=O)N[C@@H](CCCNC(=N)N)C(=O)N[C@@H](CCCNC(=N)N)C(=O)N1CCC[C@H]1C(=O)N[C@H](C(=O)N[C@@H](CCCCN)C(=O)N[C@H](C(=O)N[C@@H](Cc1ccc(O)cc1)C(=O)N1CCC[C@H]1C(=O)N[C@@H](CC(=O)O)C(=O)NCC(=O)N[C@@H](C)C(=O)N[C@@H](CCC(=O)O)C(=O)N[C@@H](CC(=O)O)C(=O)N[C@@H](CCC(=O)O)C(=O)N[C@@H](CC(C)C)C(=O)N[C@@H](C)C(=O)N[C@@H](CCC(=O)O)C(=O)N[C@@H](C)C(=O)N[C@@H](Cc1ccccc1)C(=O)N1CCC[C@H]1C(=O)N[C@@H](CC(C)C)C(=O)N[C@@H](CCC(=O)O)C(=O)N[C@@H](Cc1ccccc1)C(=O)O)C(C)C)C(C)C)C(C)C` is reported as 1 h (human, plasma; subcutaneous, RCI 80 IU, day 1, after first dose).
For `CC(=CCC(O)C(C)=Cc1csc(C)n1)CC=CC(C)C(O)C(C)C(=O)C(C)(C)C(O)CC(=O)O` (centres unmarked), the Tmax was 3.34 ± 0.27 h (human, plasma; intravenous infusion, 42 mg/m2 KOS-1584, 3 h infusion, cycle 1).
For `CCc1c2c(nc3ccc(OC4OC(C(=O)O)C(O)C(O)C4O)cc13)-c1cc3c(c(=O)n1C2)COC(=O)C3(O)CC` (centres unmarked), the Tmax was 2 h (human patients, plasma; intravenous, 3 mg/m^2 of parent drug).
The Tmax of `CCCCCCCC(=O)OC[C@H](NC(=O)[C@H](CO)NC(=O)CN)C(=O)N[C@@H](Cc1ccccc1)C(=O)N[C@@H](CC(C)C)C(=O)N[C@@H](CO)C(=O)N1CCC[C@H]1C(=O)N[C@@H](CCC(=O)O)C(=O)N[C@@H](Cc1cnc[nH]1)C(=O)N[C@@H](CCC(N)=O)C(=O)N[C@@H](CCCNC(=N)N)C(=O)N[C@H](C(=O)N[C@@H](CCC(N)=O)C(=O)N[C@@H](CCC(N)=O)C(=O)N[C@@H](CCCNC(=N)N)C(=O)N[C@@H](CCCCN)C(=O)N[C@@H](CCC(=O)O)C(=O)N[C@@H](CO)C(=O)N[C@@H](CCCCN)C(=O)N[C@@H](CCCCN)C(=O)N1CCC[C@H]1C(=O)N1CCC[C@H]1C(=O)N[C@@H](C)C(=O)N[C@@H](CCCCN)C(=O)N[C@@H](CC(C)C)C(=O)N[C@@H](CCC(N)=O)C(=O)N1CCC[C@H]1C(=O)N[C@@H](CCCNC(=N)N)C(=O)O)C(C)C` is reported as 2.47 ± 1.48 h (ELISA; healthy humans, both sexes, plasma; intravenous bolus then infusion, 0.28 µg/kg bolus then 1 µg/kg/h, 210 min).
`CC[C@H](C)C(=O)N1CCC(NC(=O)Nc2ccc(OC(F)(F)F)c(F)c2)CC1` gave a Tmax of 1.25 h (human; oral, single ascending dose, median).
